Results gathered from unrelated publications.
Each numbered part is a random draw from the data of one study; scales do not carry over between parts. Substitutions count along the parent as printed.

Series 1
Target: ABI1, truncated, D143A, DHFR fusion (Arabidopsis thaliana)
Method: DHFR PCA, deep sequencing
Matrix: yeast
Notes: methotrexate growth selection, single substitutions
With: (+)-ABA 1.4 µM
Reference: wild-type fitted maximum
Direction: higher = stronger binding
Parent: PYL1, truncated, DHFR fusion (Arabidopsis thaliana); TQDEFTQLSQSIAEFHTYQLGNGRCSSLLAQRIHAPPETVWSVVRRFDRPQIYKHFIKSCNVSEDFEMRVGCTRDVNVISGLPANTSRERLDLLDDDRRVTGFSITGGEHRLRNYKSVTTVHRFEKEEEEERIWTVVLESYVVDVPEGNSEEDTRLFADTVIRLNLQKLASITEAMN; partner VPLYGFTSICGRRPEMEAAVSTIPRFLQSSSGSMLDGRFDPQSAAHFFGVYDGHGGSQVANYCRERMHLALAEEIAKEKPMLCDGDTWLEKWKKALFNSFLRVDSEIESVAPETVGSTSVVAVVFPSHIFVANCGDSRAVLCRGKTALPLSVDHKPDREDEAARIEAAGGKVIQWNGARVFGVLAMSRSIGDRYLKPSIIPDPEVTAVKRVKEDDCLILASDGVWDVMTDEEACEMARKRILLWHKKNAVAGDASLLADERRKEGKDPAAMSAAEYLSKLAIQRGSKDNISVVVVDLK
Substitution | relative binding score [%]
R98P | 8.4
L138Y | 1.83
L8K | -11.5
L164A | 67.9
R155Y | -6.15
E38Q | 24.7
E38H | 11.8
I79F | 43
L29M | 27.9
Y53K | -20.5
V143C | 47.7
G148D | 14.4
E38I | 13.5
L94R | -0.145
V62C | 11.5
G108R | -3.39
M176T | 40.9
L93E | 13.5
T17D | 5.55

Series 2
Target: Prothrombin, mature alpha-thrombin (F2, Homo sapiens, UniProt P00734)
Method: aptamer microarray, sandwich
Form: DNA with 2'F-ANA
Matrix: in vitro
Concentration: 200 nM
Notes: whole 15-mer aptamer, many near background
With: Cy3 exosite-II aptamer, 400 nM
Direction: higher = stronger binding
Sequence: GGTTGGTGTGGTTGG
Modification | mean fluorescence intensity [a.u.]
2'F-ANA at 2 3 5 8 9 12 14 15 | 60
2'F-ANA at 3 4 6 7 10 11 12 14 15 | 162
2'F-ANA at 1 4 5 8 9 15 | 64.3
2'F-ANA at 1 5 8 9 11 12 13 | 75.7
2'F-ANA at 1 3 4 6 8 9 12 13 | 260
2'F-ANA at 4 8 12 13 14 15 | 120
2'F-ANA at 3 4 6 7 13 | 424
2'F-ANA at 1 6 9 10 12 13 14 15 | 169
2'F-ANA at 5 10 11 13 15 | 51.7
2'F-ANA at 2 3 4 5 6 9 10 11 12 13 | 53.7
2'F-ANA at 4 5 6 12 13 14 | 44.7
2'F-ANA at 1 2 3 5 7 9 10 11 12 13 15 | 59.2
2'F-ANA at 1 2 3 5 6 8 9 10 11 12 13 15 | 61.6
2'F-ANA at 1 2 3 5 7 9 10 11 12 13 14 15 | 48.2
2'F-ANA at 2 3 5 6 9 10 11 12 | 58.3
2'F-ANA at 1 2 3 4 5 6 8 11 14 | 53.1
2'F-ANA at 2 4 5 7 12 13 | 107
2'F-ANA at 1 3 4 5 6 7 9 12 15 | 111

Series 3
Target: RING finger protein unkempt homolog, zinc fingers 1-6, SBP tag (UNK, Homo sapiens, UniProt Q9C0B0, residues 30-357)
Sequence of UniProt Q9C0B0 (30-357, looked up): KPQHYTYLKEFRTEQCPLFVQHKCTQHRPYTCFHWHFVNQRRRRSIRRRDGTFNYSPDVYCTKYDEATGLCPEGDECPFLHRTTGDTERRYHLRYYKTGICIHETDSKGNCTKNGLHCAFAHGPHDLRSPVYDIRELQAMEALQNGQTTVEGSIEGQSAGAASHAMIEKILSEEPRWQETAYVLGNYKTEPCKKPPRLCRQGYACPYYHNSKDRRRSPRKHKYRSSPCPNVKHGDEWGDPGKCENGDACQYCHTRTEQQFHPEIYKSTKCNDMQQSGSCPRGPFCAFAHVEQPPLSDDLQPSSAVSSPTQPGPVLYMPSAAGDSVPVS
Method: RNA Bind-n-Seq
Form: RNA
Matrix: in vitro
Concentration: 100 nM
Notes: RNA with constant flanks, vertebrate orthologous sites, ends assumed
Reference: input RNA pool
Direction: higher = stronger binding
Sequence | bound/input enrichment [ratio]
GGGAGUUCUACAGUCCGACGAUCGCAGUGAAAAAGCAGCCCUUCUCCCAACCCCUUUUUCACUAGGAGAUACAAACAUUACCAUAGAAGAGCAAUUAAAUUCAAUAAAUUUAUCUUUUCAGGAUGAUCCAGACUCCAGCACCACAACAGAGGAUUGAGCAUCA | 1.16
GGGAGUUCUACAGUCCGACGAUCUCAUCUCUUUUUAUAUGUCCAAAAAUGGCUUUGAAUUUGUAAACAGUUGCUAGUGUCACUUAGCCCUACCCUGAUGAAGUAUUAUUGCUGUUGAUCACUAACAGACACCUGUCUGUUACUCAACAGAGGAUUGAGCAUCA | 0.526
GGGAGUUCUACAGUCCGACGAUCUUUAAUUUCUUGUAUACAUGAUCUAGUCCUGUAUUAUUAUUAUUUUCUUACACGAUUGUUUGUCAGUAUGUCUGUGUCUGUCACAUUUCCUUCUCAGGCGAAGGGCUAGAGUUUAAAAAACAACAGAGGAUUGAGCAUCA | 0.818
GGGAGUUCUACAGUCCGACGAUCUGAGUGAGAGAUUCCUGUGCUUUCUCAUAUUUAAUUUGCUCUUUUUAAGAUAUUCCAACCUAGAGUUUUUGAUGGAACUGAUAUAUUGACAAUUCUCAUCUAAGUCCUUUUAUAAAGAAUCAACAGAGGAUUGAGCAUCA | 0.617
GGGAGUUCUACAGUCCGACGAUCCCUAUCCUUGUUACUGUGAUAUUUAAAAUAUCCACAGUACUCACUUUUCCCAAAUGAUUCUAGUAAUUGCCUAGAAAUAUCUUUCUUUUACAUGUUAUUUAUCAAUUUUACCAGUAUUUUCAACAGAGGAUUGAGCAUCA | 0.862
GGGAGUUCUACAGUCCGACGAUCUUUGUGGGGGUUGGGGGGUGGGAGGAAGAUGUAUGAAGAUUAUUGGCAUUUUUAAGUGUUUGGAGUUUAGGGUAUUUUUUUUUUUGCCUCCUCUUUUAUUUUUCCCCCCUUUAAUUGGAUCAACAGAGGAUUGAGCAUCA | 0.799
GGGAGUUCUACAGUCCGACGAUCUCCAGGUAGGGGGUAACCAUUAACUUUUUUUAAUGAAGAAAUGAAAUGCUGAAAAUCAUAUGUUACUAAGUUUAGUUGGAUAAUUUAUACAAGCCUCUUUUAGGUAAUUCUAAAACUGAACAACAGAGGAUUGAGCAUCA | 0.807
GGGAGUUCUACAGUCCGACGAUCAGUAGAUGUAUACGAAUAUUGAAGUUACAGAGGAUAUCCAAGGUGGUGAUAAAGUGUGUGUUGGUAGUUACUAAAAGAACUUUAGCUGUUACUGCCUUGUAUUUCUAUCCCUUGUUUUAGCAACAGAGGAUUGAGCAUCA | 0.5
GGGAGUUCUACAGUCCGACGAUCAGCAACUCAAGGAUUCAGGACUGGUUUUACAAAUAUCCCAAGUAGAUAUGGAACUAGCACUCGAGGUCAACCACAUCCAUAAUAAACUCUAAUUUGUAUUAUUUAUUAUACUUAAGGGUACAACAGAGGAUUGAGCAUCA | 0.613
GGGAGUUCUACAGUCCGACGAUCGGGUUUGGGGUAGAGGGGAGGGAGGGGGCAGGACAGUAUGGAAUCUCAAAGGCAUUGGUUAGGAACCUCUAGAGAUGGUUGGGGGUAAAGAUGAGUGUCACCCCUUCCCUCAGUCAUGUACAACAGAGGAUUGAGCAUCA | 0.456
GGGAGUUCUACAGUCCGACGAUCAGGACCUCCAGUAGGCAAAUUCAGGGAGGGGCAGGCUUCAGGGAAUAUAAAUUAAUAUCAUAGUGGUCAUGAAGAAUAACUUUGAUUUAACUGAUUUGCGGGGAGUGAUGACAACUUCUGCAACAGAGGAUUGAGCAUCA | 0.732

Series 4
Target: Interferon regulatory factor 7, full length, phosphomimetic (IRF7, Homo sapiens, UniProt Q92985, residues 1-503, S101K/S471D/S472D/S475D/S476D/S477D/S483D/S484D/S487D)
Sequence of UniProt Q92985 (whole entry, unmodified, looked up): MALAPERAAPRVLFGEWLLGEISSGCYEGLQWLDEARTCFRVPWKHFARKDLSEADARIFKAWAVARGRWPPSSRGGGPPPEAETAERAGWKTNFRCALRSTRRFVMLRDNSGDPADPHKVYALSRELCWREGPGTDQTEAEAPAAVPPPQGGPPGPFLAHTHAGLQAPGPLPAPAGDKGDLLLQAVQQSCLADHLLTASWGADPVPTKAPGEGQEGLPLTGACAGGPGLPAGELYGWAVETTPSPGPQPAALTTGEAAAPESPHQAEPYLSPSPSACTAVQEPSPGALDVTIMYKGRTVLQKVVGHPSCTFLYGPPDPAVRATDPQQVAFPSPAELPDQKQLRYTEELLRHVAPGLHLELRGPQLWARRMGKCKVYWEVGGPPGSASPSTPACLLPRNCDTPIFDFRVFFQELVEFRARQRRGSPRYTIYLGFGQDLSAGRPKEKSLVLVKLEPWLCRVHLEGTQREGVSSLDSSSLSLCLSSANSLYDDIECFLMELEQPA
Method: protein-binding microarray
Form: double-stranded DNA, one strand shown
Matrix: in vitro
Concentration: 250 nM
Notes: 60-bp whole probe
With: salmon DNA 0.4 mg/ml
Reference: random background probes
Direction: higher = stronger binding
Constant ends, left off below: GCCTAGCAC … GTCTTGATTCGCTTGACGCTGCTG
Sequence | log fluorescence [z-score]
GACGATATCGGGTGTCGAGACGTGCTA | -0.379
GACGGTCTCGGTTTCGGGACGTGCTAG | 7.65
TTAGAACTGGGGTCTGGATTAGTGCTA | -0.467
GACCATTTCGGGTATCGAGACGTGCTA | 1.07
TTAGAACTGAGTTTCGACTAGTGCTAG | 3.21
GCCGATATCAGTATCGAGACGTGCTAG | 0.473
GACGGGATCGACTTTCGGGACGTGCTA | 0.555
GACGGTCTCCTAATGCTGACGTGCTAG | -0.179
TCAGCTTTTTTTCCGAGACTGTGCTAG | 0.398
TAGTTTTCAATTTTTGCATCGTGCTAG | 1.56
CCAACTCGCCTTTTTTGTTGGTGCTAG | 0.337
ACAGCTCACGCTTTGGAAAGGTGCTAG | -0.339
TCAACTTTGGCATGTCTTACTGTGCTA | -0.355
GGTGTCTAGGTTAGGGATTAGTGCTAG | -0.322
GACGACCTCAGTATCGAGACGTGCTAG | 0.237
TTAGATACCAGTATCGATTAGTGCTAG | 1.24
TCTGTTGCCCGTATCTAGGTGTGCTAG | 0.151
GACGGTCTCGGTATCTGGACGTGCTAG | 1.66
AAACCTCACAGTTTGTAAATGTGCTAG | 0.176
TTAGGTATGGACACTGGGTTAGTGCTA | -0.825
GACGGTTTCTGGTATCGGGACGTGCTA | 2.45
TTAGAGTTCGGGTATCGATTAGTGCTA | 0.543
TTAGGTATCGGTTTCGGTTCGTGCTAG | 13.1
TTTTTTTTTTTTTTTGTATTGTGCTAG | 0.653
TCATCTTTCTACATAGAACTGTGCTAG | 0.912

Series 5
Target: POU domain, class 5, transcription factor 1, POU domain (Pou5f1, Mus musculus, UniProt P20263, residues 131-289)
Sequence of UniProt P20263 (131-289, looked up): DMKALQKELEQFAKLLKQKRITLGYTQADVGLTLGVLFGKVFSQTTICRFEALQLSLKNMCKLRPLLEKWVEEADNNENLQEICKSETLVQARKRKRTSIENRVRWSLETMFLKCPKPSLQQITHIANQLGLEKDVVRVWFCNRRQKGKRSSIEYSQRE
Method: Spec-seq
Form: double-stranded DNA, one strand shown
Matrix: in vitro
Concentration: not given
Notes: whole probe, mean of replicates
Reference: not given
Direction: lower = stronger binding
Constant ends, left off below: GAGTCGTCTCGTCAGCAC … CCGTAGAGCACTCAGGTC
Sequence | relative binding energy
GTCCTAAT | 0.673 ln ratio
ATCCGCAT | 0.0422 ln ratio
AGGATAAT | 0.564 ln ratio
TCGGTAAT | 0.573 ln ratio
GACGTAAT | 0.549 ln ratio
TGACTAAT | 0.336 ln ratio
TGCTTAAT | 0.488 ln ratio
ATGCAAGA | -0.275 ln ratio
ATTTTTAT | 0.308 ln ratio
ATTACGAT | 0.419 ln ratio
ATAGCAAT | 0.419 ln ratio
GGTCTAAT | 0.939 ln ratio
ATGCCCAG | 0.759 ln ratio
ACAATAAT | 0.182 ln ratio
ATTACCAT | -2 ln ratio
GCCGTAAT | 0.592 ln ratio

Series 6
Target: CCNB3, cyclin fold, Cln2 fusion (human)
Method: yeast growth competition, sequencing
Matrix: yeast
Notes: weak parent motif
Reference: not given
Direction: higher = stronger binding
Parent: REPIN1 docking peptide (human); QSFRGWVALVLHL
Substitution | normalised enrichment score
QSARGWVALVLHL [F3A] | 0.535
ASFRGWVALVLHL [Q1A] | 0.396
QSFAGWVALVLHL [R4A] | -0.0234
QSFRGAVALVLHL [W6A] | 0.0179
QSFRGWVALALHL [V10A] | 0.245
QSFRGWVALVAHL [L11A] | 0.79

Excerpt of the above (series 2):
Modification | mean fluorescence intensity [a.u.]
2'F-ANA at 1 3 4 6 8 9 12 13 | 260
2'F-ANA at 4 8 12 13 14 15 | 120
2'F-ANA at 3 4 6 7 13 | 424
2'F-ANA at 1 6 9 10 12 13 14 15 | 169
2'F-ANA at 5 10 11 13 15 | 51.7
2'F-ANA at 2 3 4 5 6 9 10 11 12 13 | 53.7
2'F-ANA at 4 5 6 12 13 14 | 44.7
2'F-ANA at 1 2 3 5 7 9 10 11 12 13 15 | 59.2
2'F-ANA at 1 2 3 5 6 8 9 10 11 12 13 15 | 61.6
2'F-ANA at 1 2 3 5 7 9 10 11 12 13 14 15 | 48.2
2'F-ANA at 2 3 5 6 9 10 11 12 | 58.3
